Results of several laboratories.
Each line is one published result; not all experiments were run side by side. ± marks the error that the study gave.
4'-phosphopantetheinyl transferase PptT: 4'-phosphopantetheinyl transferase PptT (Mycobacterium tuberculosis, UniProt O33336)
Sequence of UniProt O33336 (whole entry, looked up): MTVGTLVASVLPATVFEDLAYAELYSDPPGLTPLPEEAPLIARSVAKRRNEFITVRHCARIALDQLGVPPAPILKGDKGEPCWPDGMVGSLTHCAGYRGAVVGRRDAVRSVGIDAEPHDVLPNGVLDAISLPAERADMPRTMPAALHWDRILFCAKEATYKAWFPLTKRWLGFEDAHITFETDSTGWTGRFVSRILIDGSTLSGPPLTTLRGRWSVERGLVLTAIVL
Sequence of UniProt P21554 (whole entry, unmodified, looked up): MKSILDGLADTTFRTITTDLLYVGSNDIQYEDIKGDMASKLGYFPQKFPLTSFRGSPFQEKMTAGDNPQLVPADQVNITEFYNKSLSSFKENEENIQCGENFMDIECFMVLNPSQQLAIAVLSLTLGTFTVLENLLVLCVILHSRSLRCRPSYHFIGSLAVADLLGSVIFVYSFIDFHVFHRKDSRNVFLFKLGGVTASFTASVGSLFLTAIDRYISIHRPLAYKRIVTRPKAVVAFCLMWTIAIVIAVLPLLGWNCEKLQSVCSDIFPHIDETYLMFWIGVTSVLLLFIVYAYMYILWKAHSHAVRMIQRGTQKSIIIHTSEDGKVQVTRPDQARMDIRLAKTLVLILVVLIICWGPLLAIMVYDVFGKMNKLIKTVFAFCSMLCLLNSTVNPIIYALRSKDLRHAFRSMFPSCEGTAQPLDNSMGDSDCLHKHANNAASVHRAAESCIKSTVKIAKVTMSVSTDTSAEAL
Sequence of UniProt O43525 (whole entry, looked up): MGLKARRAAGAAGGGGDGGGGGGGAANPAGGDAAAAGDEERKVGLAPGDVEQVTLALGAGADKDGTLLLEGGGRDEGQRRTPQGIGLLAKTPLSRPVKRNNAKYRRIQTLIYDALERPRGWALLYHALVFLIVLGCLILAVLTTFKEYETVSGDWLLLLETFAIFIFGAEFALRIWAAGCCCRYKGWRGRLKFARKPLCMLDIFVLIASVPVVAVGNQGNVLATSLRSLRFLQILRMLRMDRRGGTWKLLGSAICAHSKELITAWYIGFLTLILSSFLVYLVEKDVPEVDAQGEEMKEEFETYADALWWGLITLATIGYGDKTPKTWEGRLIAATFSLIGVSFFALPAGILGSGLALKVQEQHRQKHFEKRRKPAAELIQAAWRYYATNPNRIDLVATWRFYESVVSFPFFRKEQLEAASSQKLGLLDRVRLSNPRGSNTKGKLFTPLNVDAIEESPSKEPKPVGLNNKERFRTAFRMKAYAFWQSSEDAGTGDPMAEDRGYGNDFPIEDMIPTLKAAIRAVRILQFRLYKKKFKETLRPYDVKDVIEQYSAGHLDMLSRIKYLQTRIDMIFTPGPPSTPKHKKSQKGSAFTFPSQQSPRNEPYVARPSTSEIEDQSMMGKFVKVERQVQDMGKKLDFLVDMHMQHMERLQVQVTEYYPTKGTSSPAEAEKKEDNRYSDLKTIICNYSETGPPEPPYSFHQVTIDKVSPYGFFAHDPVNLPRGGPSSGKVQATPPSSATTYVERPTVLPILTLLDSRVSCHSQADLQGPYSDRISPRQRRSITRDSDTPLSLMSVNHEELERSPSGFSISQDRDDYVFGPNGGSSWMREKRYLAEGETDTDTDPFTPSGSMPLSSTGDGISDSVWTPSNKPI
Sequence of UniProt O43526 (whole entry, looked up): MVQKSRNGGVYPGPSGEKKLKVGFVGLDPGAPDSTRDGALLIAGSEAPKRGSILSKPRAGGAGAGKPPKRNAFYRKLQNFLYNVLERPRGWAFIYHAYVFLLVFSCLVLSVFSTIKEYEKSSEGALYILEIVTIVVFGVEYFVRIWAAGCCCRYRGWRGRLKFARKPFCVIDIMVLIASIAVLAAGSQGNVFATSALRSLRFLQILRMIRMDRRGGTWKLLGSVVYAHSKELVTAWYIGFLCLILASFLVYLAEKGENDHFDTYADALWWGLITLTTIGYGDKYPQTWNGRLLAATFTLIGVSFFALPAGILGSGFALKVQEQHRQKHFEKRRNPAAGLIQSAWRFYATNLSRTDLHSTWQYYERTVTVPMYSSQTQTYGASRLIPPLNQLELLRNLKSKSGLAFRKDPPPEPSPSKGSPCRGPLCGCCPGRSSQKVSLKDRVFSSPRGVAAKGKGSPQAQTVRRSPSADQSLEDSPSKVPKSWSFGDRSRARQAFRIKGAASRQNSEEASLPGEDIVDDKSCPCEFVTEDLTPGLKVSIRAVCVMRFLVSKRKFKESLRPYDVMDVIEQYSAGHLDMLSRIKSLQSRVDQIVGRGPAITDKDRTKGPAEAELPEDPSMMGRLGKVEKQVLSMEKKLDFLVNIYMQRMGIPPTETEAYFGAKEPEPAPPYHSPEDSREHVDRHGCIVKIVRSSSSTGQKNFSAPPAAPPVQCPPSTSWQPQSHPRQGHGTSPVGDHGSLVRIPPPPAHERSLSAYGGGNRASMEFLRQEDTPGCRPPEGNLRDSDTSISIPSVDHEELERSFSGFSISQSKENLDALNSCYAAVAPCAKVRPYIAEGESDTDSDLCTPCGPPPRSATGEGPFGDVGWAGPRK
Sequence of UniProt P61073 (whole entry, unmodified, looked up): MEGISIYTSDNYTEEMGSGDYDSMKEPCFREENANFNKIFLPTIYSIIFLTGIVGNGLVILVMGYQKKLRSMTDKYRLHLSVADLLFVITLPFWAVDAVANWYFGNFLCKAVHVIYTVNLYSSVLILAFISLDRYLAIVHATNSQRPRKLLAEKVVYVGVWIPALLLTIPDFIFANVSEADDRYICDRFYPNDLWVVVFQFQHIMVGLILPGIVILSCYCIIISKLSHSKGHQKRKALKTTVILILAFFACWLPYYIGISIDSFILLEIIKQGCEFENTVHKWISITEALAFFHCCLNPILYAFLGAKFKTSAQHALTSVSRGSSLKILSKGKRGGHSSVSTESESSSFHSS
Sequence of UniProt P9WGM7 (whole entry, looked up): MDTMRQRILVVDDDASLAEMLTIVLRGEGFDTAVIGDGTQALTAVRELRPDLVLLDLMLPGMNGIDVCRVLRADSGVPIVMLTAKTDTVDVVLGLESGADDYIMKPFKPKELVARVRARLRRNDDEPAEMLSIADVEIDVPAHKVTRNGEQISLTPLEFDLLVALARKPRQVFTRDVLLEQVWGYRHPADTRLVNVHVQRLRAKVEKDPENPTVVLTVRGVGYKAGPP

| SMILES | tested on | assay | test system | setting | scale | quantity | result |
| --- | --- | --- | --- | --- | --- | --- | --- |
| Cc1nc(=O)c2cc(CN(C)c3ccc(C(=O)N[C@H](CCc4nn[nH]n4)C(=O)O)s3)ccc2[nH]1 | 4'-phosphopantetheinyl transferase PptT | enzyme activity, inhibitor, fluorescence polarization |  |  |  | Hill slope | 1.7 |
| CCCCCn1cc(C(=O)c2cccc3c2CC(C)(C)C3)c2ccccc21 | Cannabinoid receptor 1 (CNR1, Homo sapiens, UniProt P21554, L193I) | Gαi1 engagement, agonist, BRET |  |  | relative to: wild type receptor | Emax reduction | ~30% |
| O=S(=O)(O)CCOCC1CSSCC(COCCS(=O)(=O)O)SS1 (stereo not drawn) | DNA-binding response regulator MtrA, C-terminal domain (mtrA, Mycobacterium tuberculosis, UniProt P9WGM7) | binding, LSPR |  |  |  | kon | 3200 ± 520 M⁻¹ s⁻¹ |
| Cc1nc(=O)c2cc(CN(C)c3ccc(C(=O)NCCNS(C)(=O)=O)s3)ccc2[nH]1 | 4'-phosphopantetheinyl transferase PptT | enzyme activity, inhibitor, fluorescence polarization |  |  |  | Hill slope | 1 |
| CC(C)C[C@H](NC(=O)[C@H](Cc1ccccc1)NC(=O)CNC(=O)CNC(=O)[C@@H](N)Cc1ccc(O)cc1)C(=O)O |  | K+ current, agonist, photo-uncaging | rat locus coeruleus neurons | concentration not given, small somatic currents |  | current amplitude | 63.4 ± 5.9 pA |
| CCCCCn1cc(C(=O)c2cccc3ccccc23)c2ccccc21 | Cannabinoid receptor 1 (CNR1, Homo sapiens, UniProt P21554, I267L/L193I/L359V) | Gαi1 engagement, agonist, BRET |  |  | relative to: reference agonist at wild-type CB1 | Emax | 149 ± 1.5% |
| CCOC(=O)C1C(OC(c2ccc(Cl)cc2)c2ccc(Cl)cc2)CC2CCC1N2C (single isomer, unassigned) | rat NMDA receptor PCP site | binding, radioligand displacement |  | inactive if below 75% at 10000 nM, added: [3H]TCP |  | Ki | inactive |
| CCCCCn1cc(C(=O)c2ccc3c(c2)CC(C)(C)C3)c2ccccc21 | Cannabinoid receptor 1 (CNR1, Homo sapiens, UniProt P21554, I267L) | Gαi1 engagement, agonist, BRET |  |  | relative to: reference agonist at wild-type CB1 | Emax | 26.9 ± 2.9% |
| Cc1nc(=O)c2cc(CN(C)c3ccc(C(=O)NCc4cc(=O)[nH]c(=O)[nH]4)s3)ccc2[nH]1 | 4'-phosphopantetheinyl transferase PptT | enzyme activity, inhibitor, fluorescence polarization |  |  |  | Hill slope | 1 |
| CCCCC/C=C\C/C=C\C/C=C\C/C=C\CCCC(=O)NC(CO)C(=O)O (stereo in doubt) | Voltage-gated potassium channel, KQT; KCNQ2(Kv7.2)/KCNQ3(Kv7.3) (KCNQ3/KCNQ2, Homo sapiens, UniProt O43525+O43526) | activator, two-electrode voltage clamp | Xenopus oocytes |  |  | maximal increase in GMAX | 66% |
| Cc1nc(=O)c2cc(CN(C)c3ccc(C(=O)NCCC[S+]([O-])c4ccccc4O)s3)ccc2[nH]1 (stereo not drawn) | 4'-phosphopantetheinyl transferase PptT | enzyme activity, inhibitor, fluorescence polarization |  |  |  | Hill slope | 1.1 |
| CC(C)C[C@@H](N)C(=O)NCC(=O)N[C@H](C)C(=O)N[C@H](CO)C(=O)N[C@H](Cc1c[nH]c2ccccc12)C(=O)N[C@H](Cc1c[nH]cn1)C(=O)N[C@H](CCCNC(=N)N)C(=O)N1CCC[C@@H]1C(=O)N[C@H](CC(=O)O)C(=O)N[C@H](CCCCN)C(=O)N[C@H](CSSC[C@@H](NC(=O)[C@@H](CCCCN)NC(=O)[C@@H](CC(=O)O)NC(=O)[C@H]1CCCN1C(=O)[C@@H](CCCNC(=N)N)NC(=O)[C@@H](Cc1c[nH]cn1)NC(=O)[C@@H](Cc1c[nH]c2ccccc12)NC(=O)[C@@H](CO)NC(=O)[C@@H](C)NC(=O)CNC(=O)[C@H](N)CC(C)C)C(=O)N[C@H](C)C(=O)N[C@H](CC(C)C)C(=O)NCC(=O)N[C@H](Cc1ccc(O)cc1)C(=O)N[C@H](CCC(N)=O)C(=O)N[C@H](CCCCN)C(=O)N[C@H](CCCNC(=N)N)C(=O)N1CCC[C@@H]1C(=O)N[C@H](CC(C)C)C(=O)N1CCC[C@@H]1C(N)=O)C(=O)N[C@H](C)C(=O)N[C@H](CC(C)C)C(=O)NCC(=O)N[C@H](Cc1ccc(O)cc1)C(=O)N[C@H](CCC(N)=O)C(=O)N[C@H](CCCCN)C(=O)N[C@H](CCCNC(=N)N)C(=O)N1CCC[C@@H]1C(=O)N[C@H](CC(C)C)C(=O)N1CCC[C@@H]1C(N)=O | C-X-C chemokine receptor type 4 (CXCR4, Homo sapiens, UniProt P61073, F87A) |  | 293 cells | 300 nM, added: 12G5 antibody 5 µg/mL | relative to: wild type | binding affinity reduction | 40% |

Repeated from above:
| SMILES | tested on | assay | test system | setting | scale | quantity | result |
| --- | --- | --- | --- | --- | --- | --- | --- |
| CCCCCn1cc(C(=O)c2cccc3c2CC(C)(C)C3)c2ccccc21 | Cannabinoid receptor 1 (CNR1, Homo sapiens, UniProt P21554, L193I) | Gαi1 engagement, agonist, BRET |  |  | relative to: wild type receptor | Emax reduction | ~30% |
